Experimental data collected from several papers.
Each numbered part is a random draw from the data of one study; scales do not carry over between parts.

Block 1
Target: RING finger protein unkempt homolog, zinc fingers 1-6, GST-SBP tag (UNK, Homo sapiens, UniProt Q9C0B0, residues 30-357)
Method: RNA Bind-n-Seq
Form: RNA
Sample: in vitro
Concentration: not given
Notes: RNA with constant flanks, human and mouse sites, ends assumed
Reference: input RNA pool
Reading: higher = stronger binding
All sequences stand within: GGGAGUUCUACAGUCCGACGAUC … CAACAGAGGAUUGAGCAUCA
Construct (chain): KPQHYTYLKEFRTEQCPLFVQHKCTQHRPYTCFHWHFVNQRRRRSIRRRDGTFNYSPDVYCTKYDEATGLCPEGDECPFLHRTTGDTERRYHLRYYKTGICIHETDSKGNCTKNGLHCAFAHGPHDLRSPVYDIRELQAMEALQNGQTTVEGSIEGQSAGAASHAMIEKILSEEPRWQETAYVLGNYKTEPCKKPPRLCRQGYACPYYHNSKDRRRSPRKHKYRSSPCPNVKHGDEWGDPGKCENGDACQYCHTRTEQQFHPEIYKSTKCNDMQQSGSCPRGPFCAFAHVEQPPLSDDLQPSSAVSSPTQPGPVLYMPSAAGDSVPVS
`GAUUUAAAACAUAGAGACCUUGAAUACAGGUCUUGCCAUCGUUUCCUUCAUAAGCCCAGCAUAGAAAAGAUGUAUCAGUUUAAUGCUGUGUGUAGACCUGGAAAUUUUUGUCAACAGGAC` gave a bound/input enrichment of 0.677 ratio.
`UGAAGAACAUUGUUGCUGACAAAGGAUUUUCUGGGUUAUUUACAGGUCUAAUUCCUCGAUUAGUUAAAAUUGUUCCUGCUUGUGCCAUUAUGAUCAGUUCAUAUGAAUUAGGAAAGUCGU` gave a bound/input enrichment of 1.33 ratio.
`UUAUGCUUUGGACACACUAUAUAAUAUAAUAUCUAAUGAAGAAGAAGAAGAAGUAGAAGAAAAUUCCACAAGACAGAGUGAAGAUUUGGGAAGCCAAUUUACAGAAAUUUUCAUUAAGCA` has a bound/input enrichment of 0.678 ratio.
The bound/input enrichment of `GGACUGGUUAUGACAGAGGCACAUCUUCCCAGUCAGACUUUGGAACAGGGCCUUGAUGUUUUAGAAAUUAUGAGAAACAUUCAUAUAUUUGUGUCCCGAUACCUCUAUAAUCUCAACAAU` is reported as 0.425 ratio.
`AAAUAUGUUGUACAUUUGAUUAAAAUUAUUUAGAUAAAUAUUACUAUGUUGACUUUUAAAUAGCUUUAUCCUAUUUUUCAUUCAUUUUGCAAAUAUUUGUUGUGUGUAGUUUCUUAACGU` gave a bound/input enrichment of 6.76 ratio.
The bound/input enrichment of `GAAGACUUCUGCCGAGAAGGUCUAUCUGAUAUCUUACCCAUUCUGCAUGGUUUAUGCCUGUAGUUGAGCCCAUUGUUGUGAAAUCUGUCCUUGUCCAGUACCUAGAUCUGUGGAGGUCAA` is reported as 0.208 ratio.
The bound/input enrichment of `AGAAGACGGAGACCAUAACAGGACAUUUGAUAUUGCCUAACUUCAUAUAAGACAGAUGGAUGAUCUGUGAACAUAAGUGUUUAUUAAAAAUGGCAAUUAAAUAUAAAUUACUUUUGUGGG` is reported as 0.808 ratio.
With `CCUGAGUUCGAGCCAGUUUUUAGUCUUUUUGCCUUCACCAACAAAAUUACUUCUGUGCACAGUAGAAUUAUUUGGUCUUGUGAUUGGAGUCCUGACAGCAAGUAUUUCUUCACUGGGAGU` the bound/input enrichment was 0.814 ratio.
`CUGGAGCAGGGUGGCCGUGGCAGCGUCCUGCAGUUCAUGCCCUUCACCACCGUGUCGGAACUGGUGAAGGUGUCAGCCAUGUCCAGCCCCAAGGUGGUUCUGGCCAUCACGGACCUCAGC` has a bound/input enrichment of 0.0538 ratio.
`GCGACGCCCGGCCCGCAGGGCAGGUAAAGAGAUUAUAAAUCUUCCACUGAAUGAAAAAAAUUUUCUUAAAGCUGCAUAUACUCCAAGAAAAAAACCACAAAUGUUUUUCUGUUUUGCCUG` gave a bound/input enrichment of 0.247 ratio.
For `AUUUUUUCAGUGUGCCCCAAGGGCAUUAAUGAGCCUUUAUAACUGAGAAAUGAUUCUUGUUAUAGUAAUUAUUCCAUAAAUGAUACCACUAGAUAAAUUACCUUGGGUUAAUAGCUCCAG`, the bound/input enrichment was 6.01 ratio.

Block 2
Target: Prothrombin, mature alpha-thrombin (F2, Homo sapiens, UniProt P00734)
Method: aptamer microarray, sandwich
Form: DNA with 2'F-ANA
Sample: in vitro
Concentration: 200 nM
Notes: whole 15-mer aptamer, many near background
Together with: Cy3 exosite-II aptamer, 400 nM
Reading: higher = stronger binding
Oligonucleotide: GGTTGGTGTGGTTGG
Under “mean fluorescence intensity”, `2'F-ANA at 1 4 6 8 9 10` is recorded as 49 a.u.
Under “mean fluorescence intensity”, `2'F-ANA at 1 3 5 6 7 8 9 11 12 13 15` is recorded as 78.2 a.u.
`2'F-ANA at 2 3 4 5 7 8 11 14 15`: “mean fluorescence intensity” 54.8 a.u.
Under “mean fluorescence intensity”, `2'F-ANA at 3 4 5 6 7 9 10 11 13 14 15` is recorded as 59.4 a.u.
`2'F-ANA at 1 3 4 7 9 10 12 13 14 15` — result for “mean fluorescence intensity”: 57.3 a.u.
Under “mean fluorescence intensity”, `2'F-ANA at 3 4 6 8 13 14` is recorded as 299 a.u.
Under “mean fluorescence intensity”, `2'F-ANA at 1 3 4 5 7 8 11 12` is recorded as 140 a.u.
Under “mean fluorescence intensity”, `2'F-ANA at 1 5 7 8 9 10 12 14 15` is recorded as 48.6 a.u.
`2'F-ANA at 1 2 3 4 6 8 9 11 13 14 15`: “mean fluorescence intensity” 234 a.u.
`2'F-ANA at 2 3 7 10 13 14 15` — result for “mean fluorescence intensity”: 297 a.u.
`2'F-ANA at 2 3 5 6 13`: “mean fluorescence intensity” 83.7 a.u.
For `2'F-ANA at 1 3 4 5 10 13 14 15`, “mean fluorescence intensity” read 95.1 a.u.
For `2'F-ANA at 2 3 5 6 9 10 13 14 15`, “mean fluorescence intensity” read 52.4 a.u.
`2'F-ANA at 1 2 3 4 6 7 9 10 14 15` — result for “mean fluorescence intensity”: 54.1 a.u.
For `2'F-ANA at 1 2 3 4 5 6 8 12 13`, “mean fluorescence intensity” read 78.1 a.u.
For `2'F-ANA at 1 2 3 6 7 9 13 15`, “mean fluorescence intensity” read 131 a.u.
For `2'F-ANA at 1 2 6 7 9 10 11 12`, “mean fluorescence intensity” read 57.5 a.u.
`2'F-ANA at 2 3 4 5 7 9 10 11 12` — result for “mean fluorescence intensity”: 79.7 a.u.
`2'F-ANA at 1 3 7 12 14` — result for “mean fluorescence intensity”: 173 a.u.
Under “mean fluorescence intensity”, `2'F-ANA at 1 5 6 8 11 13 14 15` is recorded as 50.2 a.u.
For `2'F-ANA at 1 2 6 7 9 13 14 15`, “mean fluorescence intensity” read 49.9 a.u.
`2'F-ANA at 1 2 4 5 6 7 8 9 11 13 14 15`: “mean fluorescence intensity” 57.4 a.u.

Block 3
Target: Fragile X messenger ribonucleoprotein 1, C-terminal low-complexity region (Fmr1, Mus musculus, UniProt P35922)
Method: RNA Bind-n-Seq
Form: RNA
Sample: in vitro
Concentration: 200 nM
Notes: whole 134-nt RNA, ends assumed
Together with: 150 mM LiCl
Reference: input library
Reading: higher = stronger binding
All molecules: 7-deaza-guanosine replaces G
All sequences stand within: GGGAGUUCUACAGUCCGACGAUC … UGGAAUUCUCGGGUGUCAAGG
For `UGGGAGGUGGAUUUUGUUUAUUUUUUUAGCUCAUUUCCAGGGCUGGGAAUUUUUUUUUAAUAUGUGUCAUGAAUAAAGUUGUUUUUGAAA`, the log2 enrichment was -0.175.
With `UCAAGUCCUGUGCUACACAUCGUAUGUACCGAAUCGGAGGAAAAAGGUUUUUGGAAAGUAUUAUGUUACGCCGUUCGGAUCUGCACUUCC` the log2 enrichment was -0.886.
`GUCCUGUGCUACACAUCGUAUGUACCGAAUCGGGAAAAAGGGAAAGGGUUUUUUUGGGAAAGUAUUAUGUUACGCCGUUCGGAUCUGCAC` gave a log2 enrichment of -1.54.
The log2 enrichment of `UAACUUUAGAGGAGGAUCUGAUGGAUAUGGCAGUGGACGUGGAUUUGGGGAUGGCUAUAAUGGGUAUGGAGGAGGACCCGGAGGUGGCAA` is reported as -0.204.
The log2 enrichment of `CUCAAGUCCUGUGCUACACAUCGUAUGUACCGAAUCGGUUUUUUUGGAGGUGGAAAGUAUUAUGUUACGCCGUUCGGAUCUGCACUUCCA` is reported as 0.0768.
With `UGGCCCUGUUGGCAUGCGGGGAGGAAGAGGUGGCCUCAUGGAUCGUGGUGGUCCCGGUGGAAUGUUCAGAGGUGGCCGUGGUGGAGACAG` the log2 enrichment was 0.268.
`AGUCCUGUGCUACACAUCGUAUGUACCGAAUCGGGAAAAGGGAAAAGGGGAAAAGGGAAAGUAUUAUGUUACGCCGUUCGGAUCUGCACU` gave a log2 enrichment of -0.764.
With `AGUCCUGUGCUACACAUCGUAUGUACCGAAUCGGAAAAAGGUUUUUGGUUUUUUUGGAAAGUAUUAUGUUACGCCGUUCGGAUCUGCACU` the log2 enrichment was -3.09.
With `AAGUCCUGUGCUACACAUCGUAUGUACCGAAUCGGGGUUUGGGGUGGGGUUUGGGGAAAGUAUUAUGUUACGCCGUUCGGAUCUGCACUU` the log2 enrichment was -0.992.
`CUCAAGUCCUGUGCUACACAUCGUAUGUACCGAAUCGGCCGGGCCGGGGCCGGAAAGUAUUAUGUUACGCCGUUCGGAUCUGCACUUCCA` gave a log2 enrichment of 0.684.
For `GUCCUGUGCUACACAUCGUAUGUACCGAAUCGGGUUUGGGAAAAAGGGAAAAAAAGGGAAAGUAUUAUGUUACGCCGUUCGGAUCUGCAC`, the log2 enrichment was -0.156.

Block 4
Target: Histone acetyltransferase KAT6A, both winged helices, GST fusion (KAT6A, Homo sapiens, UniProt Q92794, residues 1-181)
Method: protein binding microarray
Form: double-stranded DNA, one strand shown
Sample: in vitro
Concentration: not given
Notes: 8-mer, flanks averaged, mean of 2 arrays, mostly near background
Reference: not given
Reading: higher = stronger binding
Residues (chain): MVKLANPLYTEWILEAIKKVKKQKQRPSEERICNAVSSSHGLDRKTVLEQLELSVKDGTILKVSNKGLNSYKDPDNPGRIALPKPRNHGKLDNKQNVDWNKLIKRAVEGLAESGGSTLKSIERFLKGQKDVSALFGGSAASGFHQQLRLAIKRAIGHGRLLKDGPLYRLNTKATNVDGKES
With `ACTCCCAC` the E-score was -0.165.
`AGAGCCGA` has an E-score of 0.166.
With `AATAACGG` the E-score was 0.219.
For `CGCGTTCA`, the E-score was 0.248.
`ATTACAAG` has an E-score of -0.0136.
The E-score of `CAAAGACC` is reported as -0.0137.
For `CAGAGAAC`, the E-score was -0.109.
`AGCTCCAT` has an E-score of -0.192.
The E-score of `GAACGCAA` is reported as 0.0401.
The E-score of `CCGTTTAG` is reported as 0.252.
`CCATTCGC` gave an E-score of -0.028.
The E-score of `ATGACTGG` is reported as -0.212.
The E-score of `GTTACGGA` is reported as 0.227.
With `CATTGCAA` the E-score was -0.0613.
`AAAGCCCG` gave an E-score of 0.121.
With `GCTCGACC` the E-score was 0.0182.
`GAGCGATC` has an E-score of 0.146.
With `CTTCGGGA` the E-score was -0.0321.
`CAGATCCC` gave an E-score of -0.0677.
For `CAGGACAG`, the E-score was -0.118.
With `CCCGATTA` the E-score was 0.101.
`CGTGATGC` has an E-score of 0.119.
With `GAACTTCC` the E-score was -0.018.

Repeated from above (block 2):
For `2'F-ANA at 1 2 6 7 9 10 11 12`, “mean fluorescence intensity” read 57.5 a.u.
`2'F-ANA at 2 3 7 10 13 14 15` — result for “mean fluorescence intensity”: 297 a.u.
`2'F-ANA at 1 2 3 4 6 8 9 11 13 14 15`: “mean fluorescence intensity” 234 a.u.
`2'F-ANA at 1 2 4 5 6 7 8 9 11 13 14 15`: “mean fluorescence intensity” 57.4 a.u.
`2'F-ANA at 1 3 4 7 9 10 12 13 14 15` — result for “mean fluorescence intensity”: 57.3 a.u.
Under “mean fluorescence intensity”, `2'F-ANA at 1 3 5 6 7 8 9 11 12 13 15` is recorded as 78.2 a.u.
For `2'F-ANA at 1 3 4 5 10 13 14 15`, “mean fluorescence intensity” read 95.1 a.u.
`2'F-ANA at 2 3 4 5 7 8 11 14 15`: “mean fluorescence intensity” 54.8 a.u.
For `2'F-ANA at 1 2 6 7 9 13 14 15`, “mean fluorescence intensity” read 49.9 a.u.
`2'F-ANA at 1 3 7 12 14` — result for “mean fluorescence intensity”: 173 a.u.
